Results collected from several papers.
Compare with care: the assays were run in different laboratories. ± gives the spread as reported.

SMILES	test	test system	conditions	endpoint	value
O=C(N[C@@H](Cc1ccc(OCCCCC2CCNCC2)cc1)C(=O)O)c1nc2ccccc2o1.O=C(O)C(F)(F)F	rapid equilibrium dialysis	human platelet-free plasma	2 µM, 24 h, 37 °C	unbound fraction in plasma	0.95%
C=CC(=O)Nc1cc(Nc2ncnc(Nc3cc(Cl)c(F)cc3C(C)(C)O)n2)c(OC)cc1N(C)CCN(C)C	–	human plasma	–	unbound fraction	22.9%
Cc1cc(F)ccc1-c1cc(N2C[C@H]3COC(O)CN3C[C@H]2CO)ncc1N(C)C(=O)C(C)(C)c1cc(C(F)(F)F)cc(C(F)(F)F)c1 (stereo partly drawn)	–	pooled human liver microsomes	pH 7.4, substrate depletion	unbound intrinsic clearance	596 µL/min/mg
Cc1[nH]nc2c1N=C(c1ccccc1Cl)c1cnc(N3CCOCC3)cc1N2	–	mouse plasma	–	unbound fraction	0.0367
CCC1(CC)CC(=O)N(C2CCOc3ccc(C(=O)NC4CC(C)(C)Oc5ccccc54)cc32)C(=N)N1 (stereo not drawn)	–	dog plasma	–	unbound fraction	0.007
COc1ccc2c(c1)CN(C(=O)CCN1CCC(Cc3ccccc3)CC1)CC[S@@+]2[O-]	–	healthy male volunteers	intravenous, 0.2 mg/kg	unbound plasma concentration	150 nM
COC1C(c2ccc(Cl)c(Cc3ccc(OC4CCOC4)cc3)c2)OC(CO)C(O)C1O (stereo not drawn)	–	dog plasma	1 µM, 5 h	unbound fraction	0.042
COc1ccc2c(c1)CN(C(=O)CCN1CCC(Cc3ccccc3)CC1)CCS2	–	paroxysmal atrial fibrillation patients, plasma	oral, 540 mg, 10 min	unbound plasma concentration	3 ± 2 nM
CN(C(=O)C(C)(C)c1cc(C(F)(F)F)cc(C(F)(F)F)c1)c1cnc(N2C[C@H]3COCCN3C[C@H]2CO)cc1-c1ccc(F)cc1CO	–	pooled human liver microsomes	pH 7.4, substrate depletion	unbound intrinsic clearance	2070 µL/min/mg

Excerpt of the above:
SMILES	test	test system	conditions	endpoint	value
O=C(N[C@@H](Cc1ccc(OCCCCC2CCNCC2)cc1)C(=O)O)c1nc2ccccc2o1.O=C(O)C(F)(F)F	rapid equilibrium dialysis	human platelet-free plasma	2 µM, 24 h, 37 °C	unbound fraction in plasma	0.95%
